Measured values gathered from unrelated publications.
± gives the spread as reported.
Organism: Salmonella typhimurium

Structure (SMILES)	test	test system	conditions	scale	measurement	value
Fc1ccc(C2=CCNCC2)cc1	SOS response, SOS/umu test	TA1535/pSK1002	0.001 mg/mL, 4 h, without S9 activation	–	umu induction factor	1.2
COc1cccc(-c2n[nH]c(SCc3ccccn3)n2)c1OC	Ames test, plate incorporation	TA1535	2.0 mg/plate, with rat liver S9	–	revertant colonies per plate	8
O=[N+]([O-])c1ccc(NC2CCNCC2)c(C(F)(F)F)c1	SOS response, SOS/umu test	TA1535/pSK1002, TGA medium	0.25 mg/mL, 4 h, together with: 10% rat liver S9	reference: untreated	induction factor	0.8
Cc1cc(C(=O)NC(C)(C)COc2cccc3c2C(N)=NS(=O)(=O)N3)cc(C)n1	Ames test, initial	TA98	50.0 µg/plate	reference: solvent control	revertant ratio	1.1
N#C[C@@]1(n2ccc(N)nc2=O)O[C@H](CO)[C@@H](O)[C@H]1O	–	TA98	25 µM, without S9	–	viability	97%
CC(=O)N1CCC(C(=O)N2CCN3C(=O)c4cc(-c5ccccc5)ccc4NC(=O)C3C2)CC1 (stereo not shown)	–	TA98	15.8 µg/plate, together with: rat liver S9	–	revertants per plate	40
O=[N+]([O-])c1ccc(N2CCC(NCCC(O)c3ccc(F)c4ccccc34)CC2)c(C(F)(F)F)c1 (stereo not shown)	SOS/umu test	TA1535/pSK1002, TGA medium	0.000122 mg/mL, 4 h, together with: 10% rat liver S9	–	survival	89%
CNC(=O)c1c(N(C)N=O)ncn1C	plate incorporation	TA1537, water	150 µg/plate, without S9	–	revertant colonies per plate	12.3 ± 3
Nc1c2ccccc2nc2ccccc12.Nc1c2ccccc2nc2ccccc12.O	–	TA1537	50 µg/plate, together with: without S9	reference: vehicle control	revertant fold increase	23.2
CC(C)N(N=O)C(C)C	mutagenicity, Ames plate incorporation	TA100	150 µg/plate, without S9, methanol	–	revertant colonies per plate	163 ± 27
O=C(O)CCCOc1ccc(F)cc1-c1cc(-c2ccccc2C(F)(F)F)n(-c2ccccc2)n1	Ames test	TA100	concentration not given, without S9 metabolic activation	–	growth-inhibiting concentration	≥ 1250 µg/plate
O=[N+]([O-])c1ccc(N2CCN(CCC(O)c3ccc(F)cc3)CC2)c(C(F)(F)F)c1 (stereo not shown)	SOS/umu test	TA1535/pSK1002	0.25 mg/mL, 4 h, without S9, lower range	–	survival	224%
Nc1ccc2cc3ccccc3cc2c1	Ames test, confirmatory	TA100	2.0 µg/plate, together with: rat liver S9	reference: solvent control	revertant ratio	4
